Measurements from different studies.
Lines come from different studies, so protocols differ.
IGF1R: Insulin-like growth factor 1 receptor (IGF1R, Homo sapiens, UniProt P08069)
IGF1R phosphorylated: Insulin-like growth factor 1 receptor, phosphorylated (IGF1R, Homo sapiens, UniProt P08069)

SMILES	target	test	test system	conditions	how to read	quantity	value
COc1ccc(O)cc1-c1c[nH]c2ncc(-c3cncc(C(=O)N(C)C)c3)cc12	IGF1R	binding, competition with immobilised ligand		0.2 µM		inhibition	-1.65%
CN1CCN(Cc2ccc(NC(=O)c3cccc(C#Cc4cnc(N)c5ncccc45)c3)cc2C(F)(F)F)CC1	IGF1R	cell-free assay, competition with immobilised ligand		0.5 µM		remaining binding	94%
O=C(Cc1ccc(OCc2ccccc2)cc1)NC1(C(=O)O)CCN(C(=O)c2ccc(-c3cccc(Cl)c3)cc2)CC1	IGF1R phosphorylated	enzyme activity, inhibitor		10 µM		activity vs control	87%
C[C@H]1CN(C(=O)c2cn(-c3ccnc(N)n3)c3cc(C#CC4(O)CCCCC4)ccc23)CCN1	IGF1R	enzyme activity, inhibitor, FRET		1 µM		inhibition	-1%
Cc1[nH]nc2c1N=C(c1ccccc1Cl)c1cnc(N3CCOCC3)cc1N2	IGF1R	enzyme activity, inhibitor		0.5 µM		inhibition	9.2%
CC(=O)NCC(=O)N[C@@H](Cc1ccccc1)C(=O)N[C@@H](Cc1ccccc1)C(=O)N[C@@H](Cc1ccc(O)cc1)C(=O)NCC(=O)N[C@@H](Cc1ccc(O)cc1)C(=O)NCC(=O)N[C@@H](CO)C(=O)N[C@@H](CO)C(=O)N[C@@H](CO)C(=O)N[C@@H](CCCNC(=N)N)C(=O)N[C@@H](CCCNC(=N)N)C(=O)N[C@@H](C)C(=O)N1CCC[C@H]1C(=O)N[C@@H](CCC(N)=O)C(=O)N[C@H](C(=O)O)[C@@H](C)O	IGF1R	binding, microscale thermophoresis		unit not given	relative to: unassembled peptide Ac-IGF	affinity increase	10.7
COc1ccc(NC(=O)Nc2ccc3c(c2)C(=O)N(C(C)CO)CC(C)C(CN(C)Cc2ccc4c(c2)OCO4)O3)cc1 (stereo not drawn)	Insulin-like growth factor 1 receptor, activated (IGF1R, Homo sapiens, UniProt P08069)	kinase activity		0.03 µM, activated kinase	relative to: control	remaining activity	96%
COc1cc(OC)c(F)c(/C=C/c2cnc3ccn(S(=O)(=O)c4cn(CCF)cn4)c3n2)c1F	IGF1R			10 nM		inhibition	9.7%
C=CC(=O)Nc1cccc(-c2cnc3[nH]cc(C(=O)NC(C)(C)C)c3n2)c1	IGF1R	enzyme activity, inhibitor		0.1 µM		inhibition	4%
CNS(=O)(=O)Nc1nccc(Cc2c(C)c3ccc(Oc4ncccc4F)cc3oc2=O)c1F	IGF1R	cell-free assay, competition with immobilised ligand		10 µM		remaining binding	89%
CNC1C[S+]2CC[S+]3CC[S+](C1)[Ru-4]321([N]=C=S)[n]2c3ccc(OC)cc3c3c4c(c5cc(F)c[n+]1c5c32)C(=O)NC4=O (stereo not drawn)	IGF1R	KinomeScan		0.1 µM	relative to: untreated	remaining binding	100%
Cc1cccc(-c2ccc3nc(NC(=O)C4CCCCC4)nn3c2)c1	IGF1R	enzyme activity, Dundee kinase panel		10 µM		remaining activity	97%
COc1c(OCCCN2CCOCC2)ccc2c1N=C(NC(=O)c1cnc(N)nc1)N1CCN=C21	IGF1R	kinase activity, inhibitor		1 µM	relative to: untreated control	remaining activity	106%
C=CC(=O)N1Cc2nc(-c3cc(-c4cc(Cl)cnc4Cl)c(F)cc3F)n(-c3ccncn3)c2C1	IGF1R	cell-free assay		1 µM		inhibition	10.2%
COc1cc(-n2cc3cc(F)cc(C(N)=O)c3n2)cc(Cl)c1C1CC(O)(CCO)Cc2ccccc21 (stereo not drawn)	IGF1R	enzyme activity, inhibitor		10 µM		inhibition	0.82%
N[C@H]1CC[C@H](Nc2nccc(-c3cccnc3Oc3ccc(NC(=O)NC4CC4)c4ccccc34)n2)CC1	IGF1R	kinobead competition pulldown	HEK293/HCT116 lysate mixture	10 µM, 1 h, 4 °C	lower = stronger competition	log2 LFQ intensity	26.7
O=c1c(-c2ccc(Cl)c(CN3CCOCC3)c2)coc2cc(O)ccc12	IGF1R	enzyme activity, inhibitor		1 µM		remaining activity	112%
O=C=[N][Ru-4]123([n]4c5ccc(O)cc5c5c6c(c7cc(F)c[n+]1c7c54)C(=O)NC6=O)[S+]1CC[S+]2CC[S+]3CC1 (stereo not drawn)	IGF1R	enzyme activity		100 nM, human enzyme, added: 10 µM ATP	relative to: untreated	remaining activity	92%
c1ccc2c(Nc3cc(C4CCC4)[nH]n3)nc(Nc3ccc4nc[nH]c4c3)nc2c1	IGF1R	enzyme activity, inhibitor		0.25 µM		remaining activity	4%
CN1CC[C@@H](COc2cnc(C#N)cc2-c2ccn3nc(NC(=O)C4CC4)cc3c2)C1	IGF1R	enzyme activity, inhibitor		1 µM		inhibition	-1%
CC(C)=CC1OC(C)(C)C2C=C3C(=O)C(Cl)=CC(O)C3C3C(O)C4OC4C(=O)C132 (stereo not drawn)	IGF1R	cell-free assay, competition with immobilised ligand		10 µM		remaining binding	91%
Cc1ccc(-c2c(/C=C(\C#N)C(=O)NC(C)C)n(CCCO)c3ncnc(N)c23)cc1	IGF1R	cell-free assay, competition with immobilised ligand		1 µM		remaining binding	100%
NC(=O)[C@@H](O)C[C@H]1CCc2sc3ncnc(O[C@H]4CC[C@H](N5CCOCC5)CC4)c3c21	IGF1R	enzyme activity, inhibitor		10 µM		inhibition	8%
CNC(=O)C[C@H](Cc1ccc(C#N)cc1)NC(=O)c1cc(-c2ccc(CN[C@H](C)c3ccc(C)cc3)o2)ccc1Cl	IGF1R phosphorylated	enzyme activity, inhibitor		1 µM		activity vs control	111%
Cc1cccc(O[C@H]2CCC[C@@H](C(C)CNCc3ccncc3)C2)c1 (relative stereo)	IGF1R	cell-free assay		1 µM		inhibition	6%
COc1c(Cl)cccc1Nc1c(-c2ccncc2C#C[C@@]2(C)CCCN2C(=O)/C=C/CN(C)C)[nH]c2c1C(=O)NCC2	IGF1R	cell-free assay, competition with immobilised ligand		3 µM		remaining binding	98%
Cc1cnc2nc1Nc1cccc(c1)COC/C=C/COCc1cc(ccc1OCCN1CCOCC1)N2	IGF1R	binding		0.1 µM		remaining binding	49%
Cc1cccc(-c2ccc3nc(NC(=O)C4CCOCC4)nn3c2)c1	IGF1R	enzyme activity, Dundee kinase panel		10 µM		remaining activity	94%
COc1cc(Nc2nccc(-c3cnn4nc(OC)ccc34)n2)cc(C(F)(F)F)c1	IGF1R	binding, competition with immobilised ligand		1 µM		remaining binding	100%
Cc1nc2c(F)cc(-c3nc(Nc4ccc(CNC(=O)CCCCCCC(=O)NO)cc4)ncc3F)cc2n1C(C)C	IGF1R	enzyme activity, inhibitor		1 µM		inhibition	85%

Repeated from above:
SMILES	target	test	test system	conditions	how to read	quantity	value
COc1c(Cl)cccc1Nc1c(-c2ccncc2C#C[C@@]2(C)CCCN2C(=O)/C=C/CN(C)C)[nH]c2c1C(=O)NCC2	IGF1R	cell-free assay, competition with immobilised ligand		3 µM		remaining binding	98%
Cc1cnc2nc1Nc1cccc(c1)COC/C=C/COCc1cc(ccc1OCCN1CCOCC1)N2	IGF1R	binding		0.1 µM		remaining binding	49%
Cc1cccc(-c2ccc3nc(NC(=O)C4CCOCC4)nn3c2)c1	IGF1R	enzyme activity, Dundee kinase panel		10 µM		remaining activity	94%
